Experimental data pooled from the literature.
Every numbered part comes from another study and shows a few of its results, in no order. Changes are numbered by the printed parent chain.

Set 1 — technique: protein-binding microarray; molecule type: double-stranded DNA, one strand shown; medium: in vitro; concentration: not given; direction: higher = stronger binding
Target: Transcriptional repressor CTCF (CTCF, Homo sapiens, UniProt P49711, residues 1-727, full length assumed)
UniProt P49711, sequence (whole entry, looked up): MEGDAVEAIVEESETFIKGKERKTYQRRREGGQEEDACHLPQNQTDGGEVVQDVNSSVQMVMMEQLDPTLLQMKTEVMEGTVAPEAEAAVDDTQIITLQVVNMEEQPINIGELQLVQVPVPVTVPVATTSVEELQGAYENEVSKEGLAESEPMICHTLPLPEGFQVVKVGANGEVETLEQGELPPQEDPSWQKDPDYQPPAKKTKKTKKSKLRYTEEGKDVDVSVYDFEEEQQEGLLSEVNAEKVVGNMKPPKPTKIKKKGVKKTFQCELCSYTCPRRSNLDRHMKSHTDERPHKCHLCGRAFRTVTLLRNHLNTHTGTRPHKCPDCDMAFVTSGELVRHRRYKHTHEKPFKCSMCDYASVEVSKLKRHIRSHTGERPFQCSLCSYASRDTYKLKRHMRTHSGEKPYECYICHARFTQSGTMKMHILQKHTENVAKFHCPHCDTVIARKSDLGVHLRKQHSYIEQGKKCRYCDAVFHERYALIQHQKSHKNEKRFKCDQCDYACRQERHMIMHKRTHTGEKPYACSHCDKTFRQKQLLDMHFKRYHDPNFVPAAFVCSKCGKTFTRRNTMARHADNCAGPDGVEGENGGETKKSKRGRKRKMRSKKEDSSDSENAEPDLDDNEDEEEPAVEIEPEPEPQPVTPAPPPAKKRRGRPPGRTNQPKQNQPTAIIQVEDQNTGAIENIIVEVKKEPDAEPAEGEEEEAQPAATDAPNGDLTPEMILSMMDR
Setting: k-mer, scored over probes, only values ≥0.25
Oligonucleotide	E-score
ATTACCAC	0.315
ACCTATAT	0.278
AACGCGCA	0.31
ATATTCTC	0.272
ATTACTCG	0.25
TTACCAAA	0.253
ATAGTAGA	0.286
AACGTAAT	0.274
CCTTATAA	0.269
CTGCGCGC	0.308
TACGCATA	0.31
AAATCCAT	0.257
ATGTCATA	0.25
AAAAAAAC	0.291
AAATGATA	0.368
TAATAACA	0.343
AATTACGC	0.268
CTAGTGGC	0.369
CGGTTATA	0.272
AATTACGA	0.267
CAATATTG	0.29
CGTGCGCA	0.362
TGCGCCAA	0.344
ATAAAGAA	0.252

Set 2 — technique: universal PBM; molecule type: double-stranded DNA, one strand shown; medium: in vitro; concentration: not given; direction: higher = stronger binding
Target: Sal-like protein 4, full length isoform B (SALL4, Homo sapiens, UniProt Q9UJQ4-2, residues 1-616)
Setting: 8-mer, flanks averaged, mean of replicates
Oligonucleotide	E-score
AAACCCCG	-0.0719
AATAACCG	0.153
CATTTAGG	-0.0273
GCGCGCTA	-0.171
CCACGGCA	-0.206
ATCTTCTG	0.0815
CCCCCTTC	-0.29
CTGCCTAA	-0.128
AGGTTACG	0.0864
AACCCAGG	-0.355
GGAACCCA	-0.268
CAAGACTG	0.104
AAGTCTCT	-0.0143
GTCTTTGA	-0.0641
CAAAAATG	0.221
AAACATAC	0.197

Set 3 — technique: RNA Bind-n-Seq; molecule type: RNA; medium: in vitro; concentration: 365 nM; relative to: no-protein control; direction: higher = stronger binding
Target: RNA binding protein fox-1 homolog 2, RRM domain, GST-SBP tag (RBFOX2, Homo sapiens, UniProt O43251-10, residues 100-194)
Setting: natural RNA segment, single round, ends assumed
Construct (chain): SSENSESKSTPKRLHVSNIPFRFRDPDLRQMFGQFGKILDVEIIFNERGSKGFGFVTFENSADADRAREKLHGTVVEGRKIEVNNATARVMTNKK
Oligonucleotide	RBNS enrichment (R)
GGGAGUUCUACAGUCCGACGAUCCUCUUGUGGCCACACUAGGUUGUCGCCUUUCAGGCAGUGUCCCGCCACCUUUGCUUCCCGCUCCUUCUGGACAUUCCAGAGCCCUGCACCAAACCCUUACUUGGUGUCUGUGGAAUUCUCGGGUGCCAA	0.613
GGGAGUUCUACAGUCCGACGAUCUAAAUAAAACAGUUAUCACAUUCCCACAACAACCUAAACACAGACUACCUCUCCCCUCAUCAGAUCAGCUAAGCUGUGAGGUUCUAAGAGGUCUAGGUGUGUUUAAAUUUUGGAAUUCUCGGGUGCCAA	0.359
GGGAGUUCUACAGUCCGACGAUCGUGGUUUCGUAGAGUAAAACCCAAGUGAGGAGGGAUGUGUGGGGUUUCCAUUAGGAAAUAAUUUCGUUCUUGGUUUACUCUUUAAGAUCCUUCUCUGCUAGUUUAGAAUAUGGAAUUCUCGGGUGCCAA	1.27
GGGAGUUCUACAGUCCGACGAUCUUUCAUGAGCAACUCAUUCCUAGAGUUCAUUGUUUGCAUGGGUUUCUCACAAGCGUCCUUCCUCAUAGGAAGGCUCAUCAACUGAAUUUAGUGACAUGUACACAGUAGAUUGGAAUUCUCGGGUGCCAA	0.51
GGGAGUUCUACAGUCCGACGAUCUCAGUGGAUCCUGUUAAGGAGUGCUUCCAGCCUCAGCCUGGGCCCCUCCCACCUGGCAUGGUAAGGGGGUAAGGGACGCUCAGGGAAGAGGUGCAUUCUCCGACCUCUGCUGGAAUUCUCGGGUGCCAA	4.16
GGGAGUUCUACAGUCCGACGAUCCAGAACAUAGCCUGCCAGCUCAUGGGUGCCAGUGGUUCUCAACUUGUGAGUUGCAACUCCUUUGUCAAACCUCUAGCUCAACUCAAAACAGUAGCAAAAUUAAUUGUGAAUGGAAUUCUCGGGUGCCAA	0.591
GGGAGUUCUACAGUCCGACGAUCUUAGUUGGAGCAAAGCUUUAAGUGUGUUGGCGUGCUUCUGUGUGGCUGUCCUGUGUCGCCAGGUCGAAGAUCACAGUGAGGUAGAGGCCCUGCCCCAUCCCCAGGGCCGCUGGAAUUCUCGGGUGCCAA	0.669
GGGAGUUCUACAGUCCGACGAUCAACUUUUAUCUAUUCUGAGAAAACAAGCAAGUUCUGAGAGCCAGGGUUUUCCUACGUAGGAUGAAAAGAUUCUUCUGUGUUUAUAAAAUAUAAACAAAGAUUCAUGAUUUUGGAAUUCUCGGGUGCCAA	0.64
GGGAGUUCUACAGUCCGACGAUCUGGACUACCUGAUCAAUGGCAUGUAUGCCGACUCAGAGAUUGAGGGCUUCUCGGGAGGCCAGCCUCUACCAUGGCCGCCUGUUUUGCCUCAGACCAAACUAAGUGCUUCCUGGAAUUCUCGGGUGCCAA	0.247
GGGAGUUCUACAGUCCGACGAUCCAAGCAUAGGUUUUCCCAGACCACAAUGCUGAUAUAUCUUAUUUAAUGCAGACUGUAUUCUUGCAGCGUGUUGUUUCCUUUGUGACUCAAGGUUGAAUUAAAAUGCCUGUUGGAAUUCUCGGGUGCCAA	0.365
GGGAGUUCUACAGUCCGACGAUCAUUUUCAGAGGAAAGAACAUUUUAUGAGGCUUUCUCUAAAGUUUCCUUUGUAUAGGAGUAUGCUCACUUAAAUUUACAGAAAGAGGUGAGCUGUGUUAAACCUCAGAGUUUGGAAUUCUCGGGUGCCAA	0.331
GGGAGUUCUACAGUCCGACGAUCUGAGGAGUAUCUCUGCUCGGAAGCAUCUGUGGUGGUGUGAUGUGUUGUUCUGUGUACUGUAUGUGACACAAGCCUACAGGAUUUGCACUAAGAAAAGCUUGGUAGGAGCUUGGAAUUCUCGGGUGCCAA	0.75

Set 4 — technique: DHFR PCA, deep sequencing; medium: yeast; added: (+)-ABA 0.39 µM; relative to: wild-type fitted maximum; direction: higher = stronger binding
Target: ABI1, truncated, D143A, DHFR fusion (Arabidopsis thaliana)
Setting: methotrexate growth selection, single substitutions
Starting sequence: PYL1, truncated, DHFR fusion (Arabidopsis thaliana); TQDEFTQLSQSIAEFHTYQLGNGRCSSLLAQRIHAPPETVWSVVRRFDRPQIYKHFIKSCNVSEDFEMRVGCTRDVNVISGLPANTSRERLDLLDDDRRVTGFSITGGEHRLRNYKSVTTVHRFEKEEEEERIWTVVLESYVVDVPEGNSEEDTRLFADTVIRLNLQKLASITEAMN; partner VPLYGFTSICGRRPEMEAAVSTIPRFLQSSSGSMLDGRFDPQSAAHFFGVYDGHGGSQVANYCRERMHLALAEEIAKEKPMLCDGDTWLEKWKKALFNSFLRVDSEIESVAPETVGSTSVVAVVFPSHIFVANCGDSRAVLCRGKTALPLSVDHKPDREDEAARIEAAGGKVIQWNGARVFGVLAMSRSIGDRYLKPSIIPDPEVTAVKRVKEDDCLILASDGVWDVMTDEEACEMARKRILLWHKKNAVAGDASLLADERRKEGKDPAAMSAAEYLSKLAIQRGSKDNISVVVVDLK
Change	relative binding score [%]
V76W	-13.7
S11T	44.2
S42F	-5.31
D153M	-2.79
V76C	22
R69I	35.9
S80N	40.7
I172S	-6.8
K126A	69.1
E89Q	-3.18
V62W	-14.3
N22P	67.9
R90P	-3.29
N177L	27.7
D97H	30.4
R90S	-4.53
V76G	-6.73
R74E	-10.8
A84C	34

Set 5 — technique: protein-binding microarray; molecule type: double-stranded DNA, one strand shown; medium: in vitro; concentration: 250 nM; setting: 60-bp whole probe; added: salmon DNA 0.4 mg/ml; relative to: random background probes; direction: higher = stronger binding; shared flanks, not repeated: GCCTAGCAC … GTCTTGATTCGCTTGACGCTGCTG
Target: Interferon regulatory factor 5, full length, phosphomimetic (IRF5, Homo sapiens, UniProt Q13568-2, residues 1-514, K96S/S451D/S453D/S456D/S462D)
Oligonucleotide	log fluorescence [z-score]
CACAGAACATATTAGTATATGTGCTAG	0.49
TTAGGTCTCTGTTTCGGTTAGTGCTAG	8.28
TTAGATTTCAGTTTCGATTGGTGCTAG	10.2
GACGGAGTGGGTCTCGGGACGTGCTAG	-0.516
TCATTTCTGAATGTCTTACTGTGCTAG	1.28
GGCCCTATAGGTTTCTATATGTGCTAG	0.736
TTCGGACTGGGGACTGGGTTAGTGCTA	-0.22
TTAGGTTTCGGGACTGAGTTAGTGCTA	6.08
TTAGGTTTGGACACTGGGTTAGTGCTA	-0.0949
GACGGTATCGGTCTCGGGATGTGCTAG	5.54
TTAGGACTGGGACTGGGTTAGTGCTAG	-0.278
TTAGGTTTCCTTATCCTTTAGTGCTAG	1.19
TTCACTTTCTTTAACTCATTGTGCTAG	3.48
GAATGATTACATATATGTTGGTGCTAG	0.363
TCAAGTCTGGGAGATGAAACTGTGCTA	-0.0169
ACTAGTGTTTTTCTCCTATTGTGCTAG	1.02
CAGCCTCTACCTCCTGGGCTCGTGCTA	-0.521
TTTGGACTGCTTATCCTTTAGTGCTAG	-0.102
TTAGGACTGGGTCTCGATTAGTGCTAG	-0.00613
GACGGTTTCGGAATCGGGACGTGCTAG	6.03
